Measured values from different studies.
Compare with care: the assays were run in different laboratories.
Organism: Bacillus subtilis

CC(=O)N[C@@H](CC(C)C)C(=O)N[C@H]1CSSC[C@@H](C(=O)N2CCC[C@H]2C(N)=O)NC(=O)[C@H]([C@@H](C)O)NC(=O)[C@H](C(C)C)NC(=O)[C@H]([C@@H](C)O)NC(=O)CNC(=O)[C@H](CC(C)C)NC(=O)[C@H](Cc2ccccc2)NC(=O)[C@H](Cc2ccc(O)cc2)NC(=O)[C@H](CC(C)C)NC(=O)[C@H](CCCCN)NC(=O)[C@H](Cc2ccccc2)NC(=O)[C@H](CCCNC(=N)N)NC(=O)[C@H](CCCCN)NC(=O)[C@H](CC(C)C)NC(=O)[C@H](CCCCN)NC(=O)[C@@H]2CCCN2C(=O)[C@H](CCCCN)NC(=O)[C@H](C(C)C)NC(=O)[C@H](CC(N)=O)NC(=O)[C@H](Cc2ccc(O)cc2)NC(=O)[C@H]([C@@H](C)O)NC1=O
MIC (broth dilution; CGMCC strain; 24 h): 1.25 to 2.5 µM

CC(C)C[C@H](NC(=O)[C@H](CCCNC(=N)N)NC(=O)[C@H](C)NC(=O)[C@H](CC(C)C)NC(=O)[C@H](CCCNC(=N)N)NC(=O)[C@H](C)NC(=O)[C@H](CCCCN)NC(=O)[C@H](CC(C)C)NC(=O)[C@H](CCCNC(=N)N)NC(=O)[C@H](Cc1ccc(O)cc1)NC(=O)[C@H](CC(C)C)NC(=O)[C@H](CCCNC(=N)N)NC(=O)[C@H](C)NC(=O)[C@H](CCCNC(=N)N)NC(=O)[C@H](CC(C)C)NC(=O)[C@H](CCCCN)NC(=O)[C@H](C)NC(=O)[C@H](CC(C)C)NC(=O)[C@H](CCCNC(=N)N)NC(=O)[C@H](C)NC(=O)[C@@H](N)CCCCN)C(N)=O
MIC (broth microdilution; ATCC 6633; 24 h): < 1 µM

CC[C@H](C)[C@H](NC(=O)CN)C(=O)NCC(=O)N[C@@H](C)C(=O)N[C@H](C(=O)N[C@@H](CC(C)C)C(=O)N[C@@H](CCCCN)C(=O)N[C@H](C(=O)N[C@@H](CC(C)C)C(=O)N[C@H](C(=O)N[C@H](C(=O)NCC(=O)N[C@@H](CC(C)C)C(=O)N1CCC[C@H]1C(=O)N[C@@H](C)C(=O)N[C@@H](CC(C)C)C(=O)N[C@H](C(=O)N[C@@H](CO)C(=O)N[C@@H](Cc1c[nH]c2ccccc12)C(=O)N[C@H](C(=O)N[C@@H](CCCCN)C(=O)N[C@@H](CCCNC(=N)N)C(=O)N[C@@H](CCCCN)C(=O)N[C@@H](CCCNC(=N)N)C(=O)N[C@@H](CCC(N)=O)C(=O)N[C@@H](CCC(N)=O)C(N)=O)[C@@H](C)CC)[C@@H](C)CC)[C@@H](C)O)[C@@H](C)O)C(C)C)C(C)C
MIC (broth microdilution; KCTC 1998; 18 h, 37 °C): 2 µM

CC[C@H](C)[C@H](N)C(=O)N[C@@H](C)C(=O)N[C@@H](CC(C)C)C(=O)N[C@H](CCC(=O)O)C(=O)N[C@H](C(=O)N[C@H]1CCCCNC(=O)[C@H](CC(N)=O)NC(=O)[C@@H](CC(=O)O)NC(=O)[C@H](Cc2c[nH]cn2)NC(=O)[C@@H](Cc2ccccc2)NC(=O)[C@H]([C@@H](C)CC)NC(=O)[C@@H](CCCN)NC1=O)[C@@H](C)CC
MIC (168; 18 h, 37 °C, 0.3 mM ZnSO4 LB): > 64 µg/mL

CN[C@H](CC(C)C)C(=O)N[C@H]1C(=O)N[C@@H](CC(N)=O)C(=O)N[C@H]2C(=O)N[C@H]3C(=O)N[C@H](C(=O)N[C@H](C(=O)N[C@@H](CCCNC(=N)N)C(N)=O)c4cc(O)cc(O)c4-c4cc3ccc4O)[C@H](O)c3ccc(c(Cl)c3)Oc3cc2cc(c3O[C@@H]2O[C@H](CO)[C@@H](O)[C@H](O)[C@H]2O[C@H]2C[C@](C)(NCc3ccc(OCc4cn(CC(=O)N[C@H](C(=O)N[C@@H](CCN)C(=O)N[C@H]5CCNC(=O)[C@H]([C@@H](C)O)NC(=O)[C@H](CCN)NC(=O)[C@H](CCN)NC(=O)[C@H](CC(C)C)NC(=O)[C@@H](CC(C)C)NC(=O)[C@H](CCN)NC5=O)[C@@H](C)O)nn4)c(OC)c3)[C@H](O)[C@H](C)O2)Oc2ccc(cc2Cl)[C@H]1O
MIC (broth microdilution; 168, cation-adjusted Mueller-Hinton broth): ≤ 0.003 µM

C=C1NC(=O)C2C[S+]([O-])CC3NC(=O)C(CSC(C)C(NC(=S)C(Cc4cnc[nH]4)NC(=O)c4csc(C(C)NC(C)=O)n4)C(=O)N[C@H](CC(C)C(=O)NC(=O)CC(C(=O)O)NC(=O)C(C)NC3=O)C(=O)N2)NC(=O)[C@@H]2CCCN2C(=O)[C@@H](CC(C)C)NC1=O (some centres unmarked)
MIC (bacterial growth; 168): > 32 µg/mL

C#CCOc1ccc(CN[C@@]2(C)C[C@H](O[C@H]3[C@H](Oc4c5cc6cc4Oc4ccc(cc4Cl)[C@@H](O)[C@@H](NC(=O)[C@@H](CC(C)C)NC)C(=O)N[C@@H](CC(N)=O)C(=O)N[C@H]6C(=O)N[C@H]4C(=O)N[C@H](C(=O)N[C@H](C(=O)O)c6cc(O)cc(O)c6-c6cc4ccc6O)[C@H](O)c4ccc(c(Cl)c4)O5)O[C@H](CO)[C@@H](O)[C@@H]3O)O[C@@H](C)[C@H]2O)cc1OC
MIC (broth microdilution; 168, cation-adjusted Mueller-Hinton broth): 0.308 µM

CC(C)C[C@H](NC(=O)[C@@H](NC(=O)[C@H](CCCNC(=N)N)NC(=O)[C@H](CCC(N)=O)NC(=O)[C@H](Cc1ccccc1)NC(=O)[C@H](Cc1ccc(O)cc1)NC(=O)[C@H](CC(N)=O)NC(=O)[C@H](Cc1c[nH]c2ccccc12)NC(=O)[C@@H](NC(=O)[C@H](CCCNC(=N)N)NC(=O)[C@H](CCCCN)NC(=O)[C@@H](N)Cc1ccccc1)C(C)C)C(C)C)C(=O)N[C@H](C(=O)N[C@@H](CCCCN)C(=O)N[C@@H](CCCCN)C(=O)N[C@@H](Cc1ccc(O)cc1)C(N)=O)C(C)C
MIC (broth dilution; KCTC 3068): < 3.1 µM
